Results from different studies.
Lines come from different studies, so protocols differ. Several values in a cell are separate wells, animals, samples, runs or records. ± gives the spread as reported.
Organism: SARS-CoV-2

Structure (SMILES)	assay	test system	setting	how to read	quantity	value
Cc1ccc(N2CC3CC(C2)N3C)cc1C(=O)NC1(c2ccc3c4c(cccc24)C(=O)N3C)CC1	viral replication	Vero C1008, Omicron BA.5	0.01715 µM, 72 h		inhibition	0%
Clc1cc(Cl)cc(CCCN2CCCC3=CC4CC(CN5CCCCC45)C32)c1 (centres unmarked)	viral replication		concentration not given		antiviral activity	inactive
C[C@@H]1O[C@@H](n2c3ccccc3c3c4c(c5c6ccccc6[nH]c5c32)CNC4=O)C[C@@H](N)[C@H]1O	viral replication	mNeonGreen reporter			EC50	282 nM
CCC1OC(C2(C)CC(C)C(O)(C3(C)CCC(C(O)C4(O)OC(CC5(O)OC(C(C)C(O)CC6CCC(C)C(C(C)C(=O)O)O6)CCC5C)C(C)CC4C)O3)O2)CCC1(C)O (centres unmarked)	Western blot	Vero E6-hTMPRSS2	concentration not given		spike protein formation	inhibited
C#CCC(C)OP(=O)(O)Oc1c2c(c(OP(=O)(O)OC(C)CC#C)c3c1C1CC3c3cc4c(cc31)C1CC4c3ccccc31)C1CC2c2cc3c(cc21)C1CC3c2ccccc21 (centres unmarked)	viral replication	Caco-2			IC50	97.4 µM
O=C1C(O)=C(Nc2ccccc2Cl)C(=O)c2ccccc21		Calu-3 and HepG2		baseline: HepG2 CC50 over antiviral EC50	selectivity index	80 ± 10
CCn1ccc(-c2cc(-c3cnn(C)c3)cc([C@@H](C)NC(=O)c3cc(OCCN(C)C)ccc3C)c2)n1	viral replication	recombinant E167G mutant		baseline: wild type	EC50 fold change	6 to 13 fold
CC[C@@H](C)[C@@H](NC(=O)[C@@H](CCC(=O)O)NC(=O)[C@@H](CCC(=O)O)NC(=O)[C@@H](CCC(N)=O)NC(=O)C(C)(C)NC(=O)[C@@H](CCCCN)NC(=O)[C@H](NC(=O)[C@@H](Cc1ccccc1)NC(=O)C(C)(C)NC(=O)[C@@H](CC(=O)O)NC(=O)[C@@H](CCCCN)NC(=O)[C@@H](Cc1ccccc1)NC(=O)[C@@H](CC(N)=O)NC(=O)[C@@H](Cc1c[nH]cn1)NC(=O)[C@@H](CCC(=O)O)NC(=O)C(C)(C)NC(=O)[C@@H](CCC(=O)O)NC(=O)[C@@H](CC(=O)O)NC(=O)[C@@H](CC(C)C)NC(=O)[C@@H](Cc1ccccc1)NC(=O)[C@@H](Cc1ccc(O)cc1)NC(=O)[C@@H](CCC(N)=O)NC(=O)[C@H](N)CO)[C@H](C)O)C(=O)NCCOCCOCC(=O)NCCOCCOCC(=O)NCCOCCOCC(=O)N[C@@H](CS)C(N)=O	luciferase reporter	ancestral Wuhan spike, VSV pseudovirus	concentration not given		pseudovirus entry	decreased
Cc1ccc(N2CC(N3CCC(C)(O)CC3)C2)cc1C(=O)NC1(c2ccc3c4c(cccc24)C(=O)N3C)CC1	viral replication	Vero C1008, wild type	12.5 µM		inhibition	100%
O=P(O)(O)Oc1c2c(c(OP(=O)(O)O)c3c1C1CC3c3cc4c(cc31)C1CC4c3ccccc31)C1CC2c2cc3c(cc21)C1CC3c2ccccc21	pseudoparticle entry	Caco-2			IC50	35.5 µM
Cc1ccc(N2CC(N3CCC(C)(O)CC3)C2)cc1C(=O)NC1(c2ccc3c4c(cccc24)CC3)CC1	viral replication	Vero C1008, wild type	12.5 µM		inhibition	100%
Cc1oc2nc1C(=O)N[C@](C)(C(=O)NCCc1ccccc1)c1nc(c(C)o1)C(=O)N[C@](C)(C(=O)NCCc1ccccc1)c1nc(c(C)o1)C(=O)N[C@]2(C)C(=O)NCCc1ccccc1	viral replication	Vero E6, NRC-03-nhCoV	2.5 µM		inhibition	0%
COC(=O)CCC(C)C1CCC2C3C(O)CC4CC(OC(=O)CCC(=O)OC5OC6OC7(C)CCC8C(C)CCC(C5C)C68OO7)CCC4(C)C3CCC12C (centres unmarked)		Vero C1008	concentration not given	baseline: untreated	viral load reduction	< 1 log10
O=C(Oc1ccc(CCCCCCCCC(=O)c2c(OC(=O)c3ccccc3)cccc2OC(=O)c2ccccc2)cc1OC(=O)c1ccccc1)c1ccccc1		Vero E6/TMPRSS2, WK-521 ancestral		baseline: CC50 over EC50	selectivity index	> 2.8
Cc1ccc(N2CCN(C)CC2)cc1C(=O)NC1(c2ccc3c4c(cccc24)CC3)CC1	viral replication	Vero C1008, XBB.1	12.5 µM		inhibition	100%
CC(C)C(=O)OC[C@H]1O[C@@](C#N)(n2ccc(N)nc2=O)[C@H](O)[C@@H]1O	viral replication, qRT-PCR of viral RNA	Vero, Washington			EC90	4.8 ± 0.1 µM
O=C(c1ccc([N+](=O)[O-])c(-n2ccnc2)c1)N(c1cccc(Cl)c1)c1nc2ccccc2s1		A549-ACE2		baseline: CC50 over EC50	selectivity index	> 7
Cc1oc2nc1C(=O)N[C@](C)(C(=O)OC(C)C)c1nc(c(C)o1)C(=O)N[C@](C)(C(=O)OC(C)C)c1nc(c(C)o1)C(=O)N[C@]2(C)C(=O)OC(C)C	viral replication	Vero E6, NRC-03-nhCoV	10 µM		inhibition	23%
CC(C)CC(C(=O)N1CC2(CC1C#N)C(=O)Nc1ccccc12)N(C)C(=O)c1cc2c(F)cc(F)c(F)c2[nH]1 (centres unmarked)	viral replication, infectious virus	Vero E6	0.1111 µM		inhibition	96.3%
Oc1ccc(Br)cc1-c1nc2cc(C(F)(F)F)ccc2s1	HiBiT luminescence	HeLa replicon	concentration not given, unit not given	baseline: DMSO	replicon activity	0.583 and 0.533 and 0.774 and 0.569 and 0.851
NC(Cc1cc(O)c(O)cc1O)C(=O)O (racemic)		Huh-7		baseline: CC50 over EC50	selectivity index	inactive
CC(C)(C)NC(=O)[C@@H](c1cccnc1)N(C(=O)c1ccco1)c1ccc(C(C)(C)C)cc1		Vero C1008	1 µM	baseline: positive control	viral titre log reduction	0.00663 log10
CN1C(CC(=O)c2ccccc2)CCCC1CC(O)c1ccccc1 (centres unmarked)		Vero	83 µM		plaque reduction	81 to 88%
CC[C@H](C)[C@H](NC(=O)CNC(=O)[C@H](CO)NC(=O)CNC(=O)[C@H](CSSC[C@H](NC(C)=O)C(=O)NCC(=O)N[C@@H](CO)C(=O)NCC(=O)N[C@H](C(=O)N[C@@H](CO)C(=O)NCC(=O)N[C@H](C(=O)N[C@@H](CC(N)=O)C(=O)N[C@@H](C)C(=O)N[C@@H](CO)C(=O)N[C@H](C(=O)N[C@H](C(=O)N[C@@H](CCC(=O)O)C(=O)N[C@H](C(=O)N[C@@H](CCC(N)=O)C(=O)N[C@@H](CCCCN)C(=O)N[C@@H](CCC(=O)O)C(=O)N[C@H](C(=O)N[C@@H](CCC(=O)O)C(=O)N[C@@H](CCCNC(=N)N)C(=O)N[C@@H](CC(C)C)C(=O)N[C@@H](CC(N)=O)C(=O)N[C@@H](CCCCN)C(=O)N[C@H](C(=O)N[C@@H](C)C(=O)N[C@@H](CCCCN)C(=O)N[C@@H](CC(N)=O)C(=O)N[C@@H](CC(C)C)C(=O)N[C@@H](CC(N)=O)C(=O)N[C@@H](CCC(=O)O)C(=O)N[C@@H](CO)C(=O)N[C@@H](CC(C)C)C(=O)N[C@H](C(=O)N[C@@H](CC(=O)O)C(=O)N[C@@H](CC(C)C)C(=O)N[C@@H](CCC(N)=O)C(=O)N[C@@H](CCC(=O)O)C(N)=O)[C@@H](C)CC)C(C)C)[C@@H](C)CC)[C@@H](C)CC)C(C)C)C(C)C)[C@@H](C)CC)[C@@H](C)CC)NC(C)=O)C(=O)N[C@@H](CO)C(=O)NCC(=O)N[C@H](C(=O)N[C@@H](CC(N)=O)C(=O)N[C@@H](C)C(=O)N[C@@H](CO)C(=O)N[C@H](C(=O)N[C@H](C(=O)N[C@@H](CCC(=O)O)C(=O)N[C@H](C(=O)N[C@@H](CCC(N)=O)C(=O)N[C@@H](CCCCN)C(=O)N[C@@H](CCC(=O)O)C(=O)N[C@H](C(=O)N[C@@H](CCC(=O)O)C(=O)N[C@@H](CCCNC(=N)N)C(=O)N[C@@H](CC(C)C)C(=O)N[C@@H](CC(N)=O)C(=O)N[C@@H](CCCCN)C(=O)N[C@H](C(=O)N[C@@H](C)C(=O)N[C@@H](CCCCN)C(=O)N[C@@H](CC(N)=O)C(=O)N[C@@H](CC(C)C)C(=O)N[C@@H](CC(N)=O)C(=O)N[C@@H](CCC(=O)O)C(=O)N[C@@H](CO)C(=O)N[C@@H](CC(C)C)C(=O)N[C@H](C(=O)N[C@@H](CC(=O)O)C(=O)N[C@@H](CC(C)C)C(=O)N[C@@H](CCC(N)=O)C(=O)N[C@@H](CCC(=O)O)C(N)=O)[C@@H](C)CC)C(C)C)[C@@H](C)CC)[C@@H](C)CC)C(C)C)C(C)C)[C@@H](C)CC	viral replication	VeroE6/TMPRSS2, ancestral Wuhan		baseline: compound over corresponding monomer	IC50 ratio	1.26
CCCC/C=C/C(=O)N[C@@H](Cc1csc2ccccc12)C(=O)N[C@H]1COC(=O)[C@@H]2C[C@@H](C)CN2C(=O)[C@H](C)NC(=O)[C@@H]2CCCCN2C(=O)[C@@H]2CCCN2C1=O		SB2	concentration not given, 3 h, unit not given	baseline: DMSO	viral RNA level	0.138 and 0.106
Cc1oc2nc1C(=O)N[C@](C)(C(=O)O)c1nc(c(C)o1)C(=O)N[C@](C)(C(=O)O)c1nc(c(C)o1)C(=O)N[C@]2(C)C(=O)O	virucidal activity	Vero E6, NRC-03-nhCoV	5 µM		inhibition	12%
O=C(NC1CCN(c2ncnc3[nH]cnc23)CC1)c1cccc(NS(=O)(=O)c2ccc(C(F)(F)F)cc2)c1	replicon RdRp activity	HeLa	10 µM		remaining activity	2.68%
Cc1ccc(N2CC3CC(C2)N3)cc1C(=O)NC1(c2ccc3c4c(cccc24)C(=O)N3C)CC1	viral replication	Vero C1008, XBB.1	0.05144 µM		inhibition	60%
CCC(C)OP(=O)(O)Oc1c2c(c(OP(=O)(O)OC(C)CC)c3c1C1CC3c3cc4c(cc31)C1CC4c3ccccc31)C1CC2c2cc3c(cc21)C1CC3c2ccccc21 (centres unmarked)	spike pseudoparticle entry	Caco-2			IC50	16.1 µM

Repeated from above:
Structure (SMILES)	assay	test system	setting	how to read	quantity	value
CC(C)(C)NC(=O)[C@@H](c1cccnc1)N(C(=O)c1ccco1)c1ccc(C(C)(C)C)cc1		Vero C1008	1 µM	baseline: positive control	viral titre log reduction	0.00663 log10
CN1C(CC(=O)c2ccccc2)CCCC1CC(O)c1ccccc1 (centres unmarked)		Vero	83 µM		plaque reduction	81 to 88%
